Measurements from different studies.
Lines come from different studies, so protocols differ. ± marks the error that the study gave.
HRH1: Histamine H1 receptor (HRH1, Cavia porcellus, UniProt P31389)
Sequence of UniProt P31389 (whole entry, looked up): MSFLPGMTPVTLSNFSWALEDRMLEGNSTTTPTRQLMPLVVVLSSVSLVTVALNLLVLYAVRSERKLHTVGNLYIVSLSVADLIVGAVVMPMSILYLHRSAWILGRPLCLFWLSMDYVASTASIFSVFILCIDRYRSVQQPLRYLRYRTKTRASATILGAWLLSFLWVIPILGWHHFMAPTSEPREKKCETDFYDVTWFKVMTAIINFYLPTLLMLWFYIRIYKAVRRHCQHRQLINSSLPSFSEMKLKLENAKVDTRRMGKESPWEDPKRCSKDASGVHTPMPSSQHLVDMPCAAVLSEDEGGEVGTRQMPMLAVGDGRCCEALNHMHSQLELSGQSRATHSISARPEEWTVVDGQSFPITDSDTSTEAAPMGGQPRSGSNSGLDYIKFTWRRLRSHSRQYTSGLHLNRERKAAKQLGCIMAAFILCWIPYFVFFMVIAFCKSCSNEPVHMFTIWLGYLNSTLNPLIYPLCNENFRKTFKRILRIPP
Caspase-2: Caspase-2 (Homo sapiens, UniProt P42575)
Sequence of UniProt P42575 (whole entry, unmodified, looked up): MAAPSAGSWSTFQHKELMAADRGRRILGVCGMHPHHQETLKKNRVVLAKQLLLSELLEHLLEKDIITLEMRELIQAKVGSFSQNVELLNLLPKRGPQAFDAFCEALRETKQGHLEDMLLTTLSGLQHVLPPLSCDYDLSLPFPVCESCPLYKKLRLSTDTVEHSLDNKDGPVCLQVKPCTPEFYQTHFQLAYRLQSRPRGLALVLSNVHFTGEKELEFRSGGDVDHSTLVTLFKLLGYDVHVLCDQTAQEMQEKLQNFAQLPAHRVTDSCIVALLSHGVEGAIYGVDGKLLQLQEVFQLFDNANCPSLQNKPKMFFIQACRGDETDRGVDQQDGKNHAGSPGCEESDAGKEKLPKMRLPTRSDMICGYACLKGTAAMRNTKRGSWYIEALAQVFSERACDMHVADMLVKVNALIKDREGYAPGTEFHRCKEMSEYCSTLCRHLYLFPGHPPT
Sequence of UniProt Q8NB78 (whole entry, looked up): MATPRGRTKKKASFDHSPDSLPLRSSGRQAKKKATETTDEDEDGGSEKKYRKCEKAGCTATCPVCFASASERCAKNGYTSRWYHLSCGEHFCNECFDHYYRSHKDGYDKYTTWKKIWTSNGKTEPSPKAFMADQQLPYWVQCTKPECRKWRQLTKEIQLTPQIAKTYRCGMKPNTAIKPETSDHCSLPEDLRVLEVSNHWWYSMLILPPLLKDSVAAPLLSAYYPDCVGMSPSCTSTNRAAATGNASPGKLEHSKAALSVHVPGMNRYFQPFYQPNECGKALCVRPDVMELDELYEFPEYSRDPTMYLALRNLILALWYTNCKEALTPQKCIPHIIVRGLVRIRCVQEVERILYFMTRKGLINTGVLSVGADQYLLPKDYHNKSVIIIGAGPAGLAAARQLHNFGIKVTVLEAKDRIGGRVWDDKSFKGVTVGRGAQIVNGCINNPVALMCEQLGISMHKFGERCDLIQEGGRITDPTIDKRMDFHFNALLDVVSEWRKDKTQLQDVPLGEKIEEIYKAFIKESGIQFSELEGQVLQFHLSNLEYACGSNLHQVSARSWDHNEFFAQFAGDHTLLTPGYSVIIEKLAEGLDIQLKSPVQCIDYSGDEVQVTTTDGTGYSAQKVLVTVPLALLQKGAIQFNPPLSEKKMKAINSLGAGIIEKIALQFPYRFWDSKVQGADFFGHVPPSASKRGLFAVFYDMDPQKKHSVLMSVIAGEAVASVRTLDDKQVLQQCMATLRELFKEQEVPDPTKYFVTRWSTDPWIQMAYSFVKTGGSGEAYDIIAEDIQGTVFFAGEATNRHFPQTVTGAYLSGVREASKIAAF
Sequence of UniProt P03146 (whole entry, looked up): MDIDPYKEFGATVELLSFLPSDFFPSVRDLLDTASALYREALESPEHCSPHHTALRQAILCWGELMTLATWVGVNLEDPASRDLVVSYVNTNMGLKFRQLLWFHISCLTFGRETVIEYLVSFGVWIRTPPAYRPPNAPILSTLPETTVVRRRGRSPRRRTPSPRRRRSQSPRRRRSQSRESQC
Sequence of UniProt Q9Y210 (whole entry, unmodified, looked up): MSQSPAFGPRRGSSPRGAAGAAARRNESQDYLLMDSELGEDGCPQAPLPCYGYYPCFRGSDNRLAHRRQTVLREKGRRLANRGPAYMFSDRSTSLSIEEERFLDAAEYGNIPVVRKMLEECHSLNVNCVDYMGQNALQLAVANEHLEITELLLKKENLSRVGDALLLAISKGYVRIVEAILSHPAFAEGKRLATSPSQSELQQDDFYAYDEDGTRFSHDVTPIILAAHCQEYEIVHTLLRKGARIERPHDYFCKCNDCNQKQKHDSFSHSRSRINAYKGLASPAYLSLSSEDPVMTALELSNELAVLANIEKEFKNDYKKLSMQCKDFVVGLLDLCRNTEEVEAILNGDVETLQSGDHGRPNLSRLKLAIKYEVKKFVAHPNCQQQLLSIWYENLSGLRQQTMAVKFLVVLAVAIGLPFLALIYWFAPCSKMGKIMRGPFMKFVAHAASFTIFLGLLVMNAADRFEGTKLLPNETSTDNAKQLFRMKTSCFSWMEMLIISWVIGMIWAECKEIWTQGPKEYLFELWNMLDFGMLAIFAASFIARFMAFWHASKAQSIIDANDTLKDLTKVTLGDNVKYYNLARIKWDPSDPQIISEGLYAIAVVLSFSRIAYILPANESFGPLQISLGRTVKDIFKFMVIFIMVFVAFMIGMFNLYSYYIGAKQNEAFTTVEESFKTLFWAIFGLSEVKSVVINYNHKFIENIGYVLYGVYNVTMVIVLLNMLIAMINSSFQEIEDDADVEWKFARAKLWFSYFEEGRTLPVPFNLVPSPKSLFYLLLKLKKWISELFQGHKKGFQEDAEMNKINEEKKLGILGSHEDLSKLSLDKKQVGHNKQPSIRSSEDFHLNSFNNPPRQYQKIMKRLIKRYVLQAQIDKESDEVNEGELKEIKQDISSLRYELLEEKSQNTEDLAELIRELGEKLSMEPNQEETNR
Sequence of UniProt Q9NXA8 (whole entry, unmodified, looked up): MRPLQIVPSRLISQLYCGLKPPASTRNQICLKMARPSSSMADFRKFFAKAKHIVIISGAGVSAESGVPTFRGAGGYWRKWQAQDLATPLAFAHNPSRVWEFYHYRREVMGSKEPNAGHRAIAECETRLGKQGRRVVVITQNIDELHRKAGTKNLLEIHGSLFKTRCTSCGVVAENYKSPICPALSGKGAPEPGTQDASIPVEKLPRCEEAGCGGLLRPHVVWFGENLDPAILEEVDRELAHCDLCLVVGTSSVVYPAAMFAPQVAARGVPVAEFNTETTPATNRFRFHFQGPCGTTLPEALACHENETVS
Sequence of UniProt P22736 (whole entry, looked up): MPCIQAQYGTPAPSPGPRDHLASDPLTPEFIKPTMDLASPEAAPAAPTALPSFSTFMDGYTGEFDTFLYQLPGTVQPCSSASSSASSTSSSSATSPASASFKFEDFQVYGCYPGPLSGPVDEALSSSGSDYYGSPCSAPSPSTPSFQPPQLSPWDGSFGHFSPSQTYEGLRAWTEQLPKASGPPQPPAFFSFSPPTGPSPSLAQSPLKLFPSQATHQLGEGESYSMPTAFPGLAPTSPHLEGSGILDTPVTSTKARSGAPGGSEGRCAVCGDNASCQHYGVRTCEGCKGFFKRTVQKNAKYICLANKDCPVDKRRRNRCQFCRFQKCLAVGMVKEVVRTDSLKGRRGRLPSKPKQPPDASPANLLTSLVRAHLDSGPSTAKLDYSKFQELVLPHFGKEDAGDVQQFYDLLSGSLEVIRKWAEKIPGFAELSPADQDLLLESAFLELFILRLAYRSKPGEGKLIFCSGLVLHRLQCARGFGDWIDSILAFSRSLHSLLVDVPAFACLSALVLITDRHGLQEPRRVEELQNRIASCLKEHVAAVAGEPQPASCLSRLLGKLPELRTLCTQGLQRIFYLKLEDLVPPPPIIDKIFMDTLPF

`O=C(CC12CC3CC(CC(C3)C1)C2)NCCOCC(=O)NC1CCN(S(=O)(=O)c2cc(C(=O)Nc3cc(F)c(F)c(F)c3)ccc2F)CC1` has a DC50 of 3.02 ± 0.54 µM (Capsid protein (C, Hepatitis B virus genotype D subtype ayw, UniProt P03146); degrader, Western blot, item: HBV core protein; HepAD38, Hepatitis B virus; 24 h).
`COc1ccc(CCCN[C@@H]2CCC[C@H]2CN[C@@H]2CCC[C@H]2CNCCCCN[C@H]2CCC[C@@H]2CN)cc1` has a Ki of 6.9 µM (Lysine-specific histone demethylase 2 (KDM1B, Homo sapiens, UniProt Q8NB78); enzyme activity, inhibitor).
`CCCNC(=N)NCCCc1c[nH]cn1` has a Kb of 14.8 µM (HRH1; tissue contraction, antagonist).
For `[64Cu+2].c1cnc(CNCc2ccc(CN3CCCN4CCNCCCN(CC4)CC3)cc2)nc1`, the tissue uptake was 2.16 ± 0.24 %ID/g (CXCR4; NOD/SCID mouse, U87 xenografts, small intestine; 90 min).
With `COc1cc(CNC(=O)C[C@H](C)CCC=C(C)C)ccc1OCc1cn(-c2cccc(C(F)(F)F)c2)nn1` the growth percent was 88.3% (RXF 393; SRB; 10 µM, 48 h).
`Cc1nc(N)sc1CCCNC(=N)NCCCCCCCCNC(=N)NCCCc1sc(N)nc1C` has a Kb of 1.32 µM (HRH1; tissue contraction, antagonist).
For `CC(=O)N[C@@H](CC(=O)O)C(=O)N[C@@H](CCCNC(=N)N)C(=O)N[C@H](C(=O)N[C@H](C=O)CC(=O)O)[C@@H](C)O`, the Ki was 3.24 µM (Caspase-2, circularly permuted (Homo sapiens, UniProt P42575); enzyme activity, inhibitor; pH 6.5, 37 °C, together with: Z-VDVAD-AFC).
For `N=C(N)NCCC[C@@H]1NC(=O)[C@H](CCCCNC(=O)CNC(=O)CNC(=O)CNC(=O)CC[C@H](NC(=O)CNC(=O)CNC(=O)CNC(=O)CN2CCN(CC(=O)O)CCN(CC(=O)O)CCN(CC(=O)O)CC2)C(=O)NCC(=O)NCC(=O)NCC(=O)NCCCC[C@@H]2NC(=O)[C@@H](Cc3ccccc3)NC(=O)[C@H](CC(=O)O)NC(=O)CNC(=O)[C@H](CCCNC(=N)N)NC2=O)NC(=O)[C@@H](Cc2ccccc2)NC(=O)[C@H](CC(=O)O)NC(=O)CNC1=O` [indium-111 labelled], the tissue uptake was 2.08 ± 0.16 %ID/g (female athymic nu/nu mice, kidney; intravenous, 24 h).
`CC1=C(O)C(=O)C=C2C1=CC=C1[C@@]2(C)CC[C@@]2(C)[C@@H]3C[C@](C)(C(=O)NCCOCCOCCOCCOCC(=O)N[C@H](C(=O)N4C[C@H](O)C[C@H]4C(=O)N[C@@H](C)c4ccc(-c5scnc5C)cc4)C(C)(C)C)CC[C@]3(C)CC[C@]12C` has a DC50 of 0.519 µM (Nuclear receptor subfamily 4 group A member 1 (NR4A1, Homo sapiens, UniProt P22736); protein level, degrader, western blot).
`O=C(c1cc2c(s1)CCCCC2)N1CCC(n2c(=O)[nH]c3ccccc32)CC1` gave an EC50 of 3.92 ± 0.37 µM (Short transient receptor potential channel 6 (TRPC6, Homo sapiens, UniProt Q9Y210, Y705W); channel activation, agonist, whole-cell patch clamp).
`CC(=O)N[C@@H](CCCNC(=N)N)C(=O)N[C@@H](C)C(=O)N[C@H](C=O)CC(=O)O` gave a Ki of > 100 µM (Caspase-2; enzyme activity, inhibitor, fluorescence; pH 6.5).
Under “DOPAC level reduction”, `CC(C)C[C@H](NC(=O)[C@H](CO)NC(=O)[C@H](CCCNC(=N)N)NC(=O)[C@H](CC(=O)O)NC(=O)[C@H](CCC(=O)O)NC(=O)[C@H](C)NC(=O)[C@@H]1CCCN1C(=O)[C@H](C)NC(=O)[C@H](CCC(=O)O)NC(=O)[C@@H]1CCCN1C(=O)[C@@H]1CCCN1)C(N)=O` is recorded as 54% (dopamine system; rhesus monkey, contralateral caudate nucleus; intranasal, dose not given, repeated dose escalation; baseline: vehicle).
With `CC(=O)N[C@H](C(=O)N[C@@H](CCN)C(=O)N[C@H](C=O)CC(=O)O)C(C)C` the Ki was 52.5 µM (Caspase-2; enzyme activity, inhibitor, fluorescence; pH 6.5).
The steatosis score of `CC[C@H]1[C@@H](O)[C@@H]2[C@H](CC[C@]3(C)[C@@H]([C@H](C)CCOS(=O)(=O)[O-])CC[C@@H]23)[C@@]2(C)CC[C@@H](O)C[C@@H]12.[Na+]` is reported as 2.9 ± 0.1 (histology; ob/ob NASH mouse model, liver; oral, 3 mg/kg once daily, before treatment, baseline of 8 week study, scale 0 to 3; direction not given).
`CCOC(=O)C1=CN([C@@H]2O[C@H](CO)[C@@H](O)[C@H]2O)C=CC1` gave a Kd of 1.2 µM (NAD-dependent protein deacylase sirtuin-5, mitochondrial (SIRT5, Homo sapiens, UniProt Q9NXA8, W222A); binding, MST).

Repeated from above:
`O=C(c1cc2c(s1)CCCCC2)N1CCC(n2c(=O)[nH]c3ccccc32)CC1` gave an EC50 of 3.92 ± 0.37 µM (Short transient receptor potential channel 6 (TRPC6, Homo sapiens, UniProt Q9Y210, Y705W); channel activation, agonist, whole-cell patch clamp).
